{"data": "Values quoted from earlier work, collected from citations in different studies", "note": "Each numbered part shows a few of the values that one paper quotes."}
{"data": "Study 1", "organism": "Cryptosporidium parvum", "method": "high-throughput screen", "concentration": "concentration not given"}
{"SMILES": "Cc1[nH]cnc1CN1CCc2c(c3ccccc3n2C)C1=O", "activity": "inactive"}
{"SMILES": "CCN(CC)CC#CCOC(=O)C(O)(c1ccccc1)C1CCCCC1 (stereo not drawn)", "activity": "inactive"}
{"SMILES": "CN(C)CC/C=C1/c2ccccc2COc2ccc(CC(=O)O)cc21", "activity": "inactive"}
{"data": "Further values, each from its own experiment"}
{"Compound": "C[C@H](c1ccnc(Nc2nc3ccc(-c4cc(N(C)C)ncn4)cc3[nH]2)c1)N1CCN(C(=O)CC(F)(F)F)CC1", "tested on": "TBK1", "method": "biochemical", "notes": "high ATP", "measurement": "IC50", "result": "18 nM"}
{"Compound": "CC(C)(O)c1cn(-c2ccc(-c3cc(F)c(CO)c(S(C)(=O)=O)c3)cc2F)c(C(C)(C)c2c(Cl)cccc2Cl)n1", "tested on": "ABCA1", "measurement": "EC50", "result": "0.6 nM"}
{"Compound": "COc1ccc2cc(OCC3(C(=O)O)CN(C(=O)c4ccc(F)cc4)C3)ccc2c1", "tested on": "NQO2", "measurement": "IC50", "result": "530 nM"}
{"Compound": "CNC(=O)c1cc(Oc2ccc(NC(=O)Nc3ccc(Cl)c(C(F)(F)F)c3)cc2)ccn1", "host": "human", "notes": "product characteristics summary", "measurement": "Tmax", "result": "~3 h"}
{"Compound": "C[C@H](c1cccc(C#N)c1)n1cc(Cl)cc(C(N)=O)c1=N", "tested on": "ADRA1D", "observed": "cellular activity", "measurement": "IC50", "result": "15 nM"}
{"Compound": "CCCOc1ccc([C@@H]2[C@@H](C(=O)O)[C@H](c3ccc4c(c3)OCO4)CN2CC(=O)Nc2c(CC)cccc2CC)cc1", "tested on": "EDNRB", "method": "cell-based", "measurement": "IC50", "result": "1000 nM"}
{"note": "Repeated from above (further values, each from its own experiment):"}
{"Compound": "CNC(=O)c1cc(Oc2ccc(NC(=O)Nc3ccc(Cl)c(C(F)(F)F)c3)cc2)ccn1", "host": "human", "notes": "product characteristics summary", "measurement": "Tmax", "result": "~3 h"}
